Results pooled from the literature.
Each line is one published result; not all experiments were run side by side.

Structure (SMILES) | assay | test system | setting | quantity | result
Cn1cncc1-c1c(F)cncc1NC(=O)c1c(N)nn2cc(F)cnc12 | – | human patients | oral, 220 mg once daily, 2 weeks on 1 week off | patients grade ≥3 creatinine increase | 17%
CCS(=O)(=O)Nc1ccc(Oc2ccc(F)cc2F)c(-c2cn(C)c(=O)c3[nH]ccc23)c1 | measured: Acidosis | human, relapsed/refractory AML | oral, dose not given, trial, added: alone or with venetoclax | patients with fatal adverse event | 0%
O=C1Nc2cc3[nH]nc(-c4ccncc4)c3cc2CN1Cc1ccccc1 | CTCAE v4.03 | human, relapsed or refractory advanced solid tumours | intravenous, 9.6 mg/kg, pooled schedules | patients with rash | 22%
O=C(c1ccc(F)c(F)c1Nc1ccc(I)cc1F)N1CC(O)([C@@H]2CCCCN2)C1 | – | human patients | oral, 1 mg/kg, dose expansion cohort | patients with SAE leading to withdrawal | 8%
CCN(CCO)CCCC(C)Nc1ccnc2cc(Cl)ccc12 (centres unmarked) | – | human, newly diagnosed glioblastoma | oral, 400 mg/dose, platelet decrease grade 4, with RT and TMZ | patients with adverse event | 14%
Cc1cn([C@H]2O[C@@H](CO[P@@](=O)(N[C@@H](C)C(=O)OC(C)C)Oc3ccccc3)[C@H](O)[C@H]2F)c(=O)[nH]c1=O | measured: grade 3 | human | 50 mg | patients with ALT/AST elevation | 0%
COc1ncnn2ccc(-c3cnc4nc(C)n(Cc5nnc([C@@H](C)F)o5)c4c3)c12 | – | human | oral, dose not given, grade 3 | patients with tumour lysis syndrome | 14.3%
Cn1ncc(-c2nc(N[C@H]3CC[C@H](N)CC3)ncc2Cl)c1CC1CC1 | measured: treatment-related Stomatitis grade 3 or higher | human patients phase I | dose not given | patients with adverse events | 3.2%
C[C@]1(O)C[C@@](N)(c2ccc(-c3nc4n(c3-c3ccccc3)COc3ccncc3-4)cc2)C1 | – | human, advanced or metastatic solid tumours | 24 mg intermittent, phase I dose escalation | patients with Nausea TEAE | 0%
COc1ccc(-c2c(-c3ccc(C#N)c(F)c3)nc(N3CCC(N)CC3)n(C)c2=O)cc1F | measured: general health deterioration | human patients | oral, dose not given, dose escalation | patients with serious TEAE | 4%
CCN1[C@@H](C(=O)NC23CCC(C(=O)O)(CC2)CC3)[C@H](c2cccc(Cl)c2F)[C@]2(C(=O)Nc3cc(Cl)ccc32)C12CCCCC2 | measured: any-grade treatment-related vomiting | human, advanced solid tumours | oral, dose not given, all sample A patients | patients with adverse event | 42.9%
NC(=O)[C@H]1CCN(c2ncnc(N)c2F)C[C@@H]1N1CCC[C@@H](Nc2cc(Cl)cc(C(F)(F)F)c2)C1=O | – | human patients | oral, dose not given, grade ≥3 | patients with decreased platelets | 8%
C=CC(=O)Nc1cc(Nc2nccc(Nc3cc(Cl)c(F)cc3C(C)(C)O)n2)c(OC)cc1N1CC[C@@H](N(C)C)C1 | – | human patients | oral, 50 mg, treatment-emergent adverse events | patients with hypokalaemia | 0%
C[C@@H]1OC(=O)NN=C1c1ccc(-c2ccc(F)cc2)c(C(F)(F)F)c1 | phase I trial, measured: Dyspnoea all grades | human patients | 10 mg loading then 0.5 mg daily | patients with adverse event | 0%

Repeated from above:
Structure (SMILES) | assay | test system | setting | quantity | result
NC(=O)[C@H]1CCN(c2ncnc(N)c2F)C[C@@H]1N1CCC[C@@H](Nc2cc(Cl)cc(C(F)(F)F)c2)C1=O | – | human patients | oral, dose not given, grade ≥3 | patients with decreased platelets | 8%
C=CC(=O)Nc1cc(Nc2nccc(Nc3cc(Cl)c(F)cc3C(C)(C)O)n2)c(OC)cc1N1CC[C@@H](N(C)C)C1 | – | human patients | oral, 50 mg, treatment-emergent adverse events | patients with hypokalaemia | 0%
